# Results pooled from the literature.
# Numbered parts are unrelated; each lists some results of a single study.

# Set 1 — mode: inhibitor; concentration: 20 µM
# Target: Replicase polyprotein 1ab, nsp13 helicase (rep, Severe acute respiratory syndrome coronavirus 2, UniProt P0DTD1)
Structure (SMILES),inhibition
Cc1nc2sccn2c(=O)c1CCN1CCC(=C(c2ccccc2)c2ccc(F)cc2)CC1,2.11%
O=C(NOCCO)c1ccc2cncn2c1Nc1ccc(I)cc1F,2.03%
Oc1ccc2c3c1O[C@H]1c4c(c5ccccc5n4Cc4ccccc4)C[C@@]4(O)[C@@H](C2)N(CC2CC2)CC[C@]314,-3.52%
OCCOc1ccc(/C(=C(/CCCl)c2ccccc2)c2ccccc2)cc1,4.3%
C[C@H]1C[C@H]2[C@@H]3CCC4=CC(=O)C=C[C@]4(C)[C@@]3(Cl)[C@@H](O)C[C@]2(C)[C@@]1(O)C(=O)CO,-2.35%
O=C(O)CCCC[C@@H]1SC[C@@H]2NC(=O)N[C@@H]21,3.36%
CC(C)(N)c1cc(C(=O)N[C@@H]2CCc3ccc(Oc4ccnc5c4CCC(=O)N5)cc3C2)cc(C(F)(F)F)c1,0.42%
CC1=C(/C=C/C(C)=C/C=C/C(C)=C/CO)C(C)(C)CCC1,10.8%
Nc1cccc2c1C(=O)N(C1CCC(=O)NC1=O)C2=O (stereo not drawn),1.73%
CN(C)c1cccc(Oc2cnc(Nc3cccc(O)c3)nc2)c1,1.63%
CO[C@H]1C[C@@H]2CC[C@@H](C)[C@@](O)(O2)C(=O)C(=O)N2CCCC[C@H]2C(=O)O[C@H]([C@H](C)C[C@@H]2CC[C@@H](O)[C@H](OC)C2)CC(=O)[C@H](C)/C=C(\C)[C@@H](O)[C@@H](OC)C(=O)[C@H](C)C[C@H](C)/C=C/C=C/C=C/1C,8.5%
CN(CCOc1ccc(NS(C)(=O)=O)cc1)CCc1ccc(NS(C)(=O)=O)cc1,5.18%
CC(=O)Nc1cccc(Nc2ncnc(N3CCC(OCc4ccc(OC(F)(F)F)cc4)CC3)n2)c1C,8.85%
N#Cc1ccc(-c2csc(NN=C3CCCC3)n2)cc1,0.34%
O=C1C[C@@H](c2ccccc2)Oc2cc(O)cc(O)c21,1.15%
O=C1N=C(NCc2cccs2)S/C1=C\c1ccc2ncccc2c1,10.8%
O=C(OCC(O)CO)c1ccccc1Nc1ccnc2c(C(F)(F)F)cccc12 (stereo not drawn),7.72%
O=C(NC[C@H](O)CO)c1ccncc1Nc1ccc(I)cc1F,1.31%
CC(C)n1cnc2c(C(=O)N[C@H]3CN4CCC3CC4)cc(Cl)cc21,2.95%
CCO[C@@H](Cc1ccc(OCCn2c(C)ccc2-c2ccc(SC)cc2)cc1)C(=O)O,45.4%
O=C(Nc1ccc(O)cc1)c1ccccc1O,-0.82%
COc1ccc(NC(=O)c2ccc(-c3ccc(-c4noc(C)n4)cc3C)cc2)cc1OCCN(C)C,13.2%
CCCn1cnc2c1c(=O)n(CCCCC(C)=O)c(=O)n2C,3.99%
CCCCC1(COC(=O)CCC(=O)O)C(=O)N(c2ccccc2)N(c2ccccc2)C1=O,0.75%
Cc1cc(-c2ccccc2)nnc1NCCN1CCOCC1,-4.91%

# Set 2 — effect on: enzyme activity; mode: inhibitor; concentration: 20 µM; setting: hit confirmation, with DTT
# Target: Replicase polyprotein 1ab, main protease (rep, Severe acute respiratory syndrome coronavirus 2, UniProt P0DTD1)
Structure (SMILES),inhibition [%]
COc1ccc2[n-]c([S@@+]([O-])Cc3ncc(C)c(OC)c3C)nc2c1.COc1ccc2[n-]c([S@@+]([O-])Cc3ncc(C)c(OC)c3C)nc2c1.O.O.O.[Mg+2],-6.8
O=C1OC2(c3cc(I)c(O)c(I)c3Oc3c2cc(I)c(O)c3I)c2c(Cl)c(Cl)c(Cl)c(Cl)c21,92.1
CCOC(=S)SSC(=S)OCC,1.4
CC(=O)[O][Hg][c]1ccccc1,84.7

# Set 3 — method: universal PBM; molecule type: double-stranded DNA, one strand shown; matrix: in vitro; concentration: not given; direction: higher = stronger binding
# Target: Sal-like protein 4, full length isoform B (SALL4, Homo sapiens, UniProt Q9UJQ4-2, residues 1-616)
# Setting: 8-mer, flanks averaged, mean of replicates
# Residues (chain): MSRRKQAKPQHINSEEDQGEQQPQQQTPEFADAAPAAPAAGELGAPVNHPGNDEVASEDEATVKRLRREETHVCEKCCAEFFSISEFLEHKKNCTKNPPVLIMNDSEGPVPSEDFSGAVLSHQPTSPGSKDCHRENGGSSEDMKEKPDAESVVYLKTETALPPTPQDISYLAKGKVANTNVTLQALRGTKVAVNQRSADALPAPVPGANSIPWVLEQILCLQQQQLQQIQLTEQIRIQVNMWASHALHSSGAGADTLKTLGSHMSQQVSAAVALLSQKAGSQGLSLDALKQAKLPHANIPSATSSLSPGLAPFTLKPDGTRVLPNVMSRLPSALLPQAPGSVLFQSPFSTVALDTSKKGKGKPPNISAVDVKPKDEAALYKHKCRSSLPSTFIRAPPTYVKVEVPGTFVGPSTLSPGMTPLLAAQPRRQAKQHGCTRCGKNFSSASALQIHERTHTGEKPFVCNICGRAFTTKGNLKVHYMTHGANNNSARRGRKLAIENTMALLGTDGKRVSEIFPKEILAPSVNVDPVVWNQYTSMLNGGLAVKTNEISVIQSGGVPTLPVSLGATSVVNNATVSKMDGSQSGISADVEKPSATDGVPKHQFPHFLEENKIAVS
Sequence,E-score
AAACCGAT,-0.00736
CATAGCAG,-0.00105
CCGGTGAG,-0.332
CCAGCGGC,-0.344
ACGTTAAG,0.00687
CTAGATAC,0.168
AGGTCTTA,-0.0291
TATAAGGA,0.3

# Set 4 — cell line: HEK-293T; effect on: pseudovirus infection; method: FDA-approved drug library screen; organism: VSV pseudotyped with SARS-CoV-2 spike; concentration: 10 µM; time: 16 h; baseline: vehicle-treated
SMILES,GFP-positive cells [%]
CNC[C@H](O)c1cccc(O)c1,71.9
COc1ccccc1OCC(O)CO (stereo not drawn),83.9
C[C@]12C=CC(=O)C=C1CC[C@@H]1[C@@H]2C(=O)C[C@@]2(C)[C@H]1CC[C@]2(O)C(=O)CO,85.3
C[C@]12CC[C@H]3[C@@H](CC[C@@]45O[C@@H]4C(O)=C(C#N)C[C@]35C)[C@@H]1CC[C@@H]2O,74.2

# Set 5 — method: protein-binding microarray; molecule type: double-stranded DNA, one strand shown; matrix: in vitro; concentration: 250 nM; setting: 60-bp whole probe; with: salmon DNA 0.4 mg/ml; baseline: random background probes; direction: higher = stronger binding; shared flanks, not repeated: GCCTAGCAC … GTCTTGATTCGCTTGACGCTGCTG
# Target: Interferon regulatory factor 5, full length, phosphomimetic (IRF5, Homo sapiens, UniProt Q13568-2, residues 1-514, K96S/S451D/S453D/S456D/S462D)
Sequence,log fluorescence [z-score]
TCAGTGATAGCTCTGGTACTGTGCTAG,-0.202
TTAGAACTGAGTTGCGATTAGTGCTAG,0.791
TTACGTTTCGGGTATCGGTTAGTGCTA,9.94
TTCTCTAACCTCTCTAATAAAGTGCTA,0.414
TTAGGTTTCGGACGGGGTTAGTGCTAG,4.73
GACGGTCTCCTTCTCCGGACGTGCTAG,-0.0561
CCCCTACTGTATTTGGCCAGGTGCTAG,-0.279
TTAGAGCTGGGGTATCGATTAGTGCTA,1.48

# Set 6 — method: protein binding microarray; molecule type: double-stranded DNA, one strand shown; matrix: in vitro; concentration: not given; baseline: not given; direction: higher = stronger binding
# Target: Histone acetyltransferase KAT6A, winged helix 1, GST fusion (KAT6A, Homo sapiens, UniProt Q92794, residues 1-85)
# Setting: 8-mer, flanks averaged, mean of 2 arrays, mostly near background
# Target sequence (chain): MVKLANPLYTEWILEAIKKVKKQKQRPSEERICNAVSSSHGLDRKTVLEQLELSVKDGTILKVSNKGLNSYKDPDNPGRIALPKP
Sequence,E-score
TACTGTAA,-0.0415
CTCAAGAG,-0.272
GGGCGGAC,0.298
CGAACGCC,0.232
ACTACCTG,-0.127
TACAGAAA,-0.147
GGACCAGA,-0.155
CCAAGCGA,0.028
